Results gathered from unrelated publications.
Protocols differ between the studies behind these lines. Several values in a cell are separate wells, animals, samples, runs or records. ± marks the error that the study gave. In brackets after ≈: the same amount, converted by molar mass.
rep main protease: Replicase polyprotein 1ab, main protease (rep, Severe acute respiratory syndrome coronavirus 2, UniProt P0DTD1)

SMILES | target or system | test | system | setting | scale | quantity | result
Cc1ccnc(OC2CCOC3(CCN(C(=O)C4(c5ccccc5)CCCC4)CC3)C2)c1 (stereo not shown) | Venezuelan equine encephalitis virus | viral replication | – | – | – | EC50 | 20 µM
Fc1ccc2[nH]c(C3CCCCN3Cc3nnc(-c4ccco4)o3)nc2c1 (stereo not shown) | Lassa mammarenavirus | viral replication | Huh-7 | 10 µM, 72 h | – | remaining activity | 40%
CC(C)C(=O)Nc1ncc(Cc2cccc3ccccc23)s1 | Histoplasma capsulatum | microbial growth | – | – | – | MIC | 2.5 µM (≈ 0.776 µg/mL)
CC(CN1c2ccccc2Sc2ccccc21)N(C)C (stereo not shown) | SARS-CoV-2 | viral replication, GFP plate reader screen | – | cell-based | – | EC50 | 21.9 µM
Cc1ccccc1C(=O)Nc1ccc(N2CCN(C(=O)c3cnccn3)CC2)nc1 | Mycobacterium tuberculosis | bacterial growth | H37Ra-lux | 168 h | – | IC90 | 3.82 µM
CC1CCN(CCCNC(=O)c2cc(Sc3ccc(F)cc3)nc3ccccc23)CC1 | SARS-CoV-2 | cytopathic effect, cell-based CPE | USA_WA1/2020 | round 2, 5-point dilution | – | AC50 | 11.2 µM
COc1cc(NC(=O)Cc2cnc3c(C)cccn23)ccc1NC(=O)CC(C)C | Lassa mammarenavirus | viral replication | Huh-7 | 10 µM, 72 h | – | remaining activity | 32%
Oc1ccccc1-c1nc(-c2cccs2)c(-c2cccs2)[nH]1 | SARS-CoV-2 | cytopathic effect, cell-based CPE | USA_WA1/2020 | round 1, 5-point dilution | – | AC50 | 12.6 µM
Cn1c(=O)ccc2ccc(F)c(CCNC[C@H]3CN(c4cnc5c(n4)NC(=O)CO5)C(=O)O3)c21 | Burkholderia mallei | – | – | – | – | MIC90 | 1 µg/mL (≈ 2.13 µM)
O=C1c2c(O)c(=O)ccn2N([C@@H]2c3ccccc3SCc3c2ccc(F)c3F)[C@@H]2COCCN12 | Influenza A virus H5N1 | viral replication, plaque reduction | A/duck/Bangladesh/27892/2015 | – | – | EC50 | 0.00026 ± 2e-05 µM
CNC(=O)[C@@H](NC(=O)[C@H](CC(C)C)[C@H](O)C(=O)NO)C(C)(C)C | Daboia russelii | – | C2C12 | 100 µM, added: Daboia russelii venom KA | relative to: venom alone | viability difference | -65.2%
OCC1CCCN(CCNC2CCN(c3ccccc3Cl)CC2)C1 (stereo not shown) | Lassa mammarenavirus | viral replication | Huh-7 | 10 µM, 72 h | – | remaining activity | 48%
COC(=O)[C@H]1[C@H]2C[C@@H]3c4[nH]c5cc(OC)ccc5c4CCN3C[C@H]2C[C@@H](OC(=O)/C=C/c2cc(OC)c(OC)c(OC)c2)[C@@H]1OC | SARS-CoV-2 | viral replication, high-content imaging screen | – | cell-based | – | EC50 | > 100 µM
Cc1nc2n(n1)CC(=O)N[C@@H](C(C)C)CN(Cc1ccccc1)CC(=O)N[C@@H](CC(C)C)c1nc(cs1)C(=O)N[C@H]2Cc1ccccc1 | Lassa mammarenavirus | viral replication | Huh-7 | 10 µM, 72 h | – | remaining activity | 78%
Cn1cnc(Cn2c(=O)[nH]/c(=N\c3cc4cn(C)nc4cc3Cl)n(Cc3cc(F)c(F)cc3F)c2=O)n1 | – | – | human, normal renal function | oral, 375 mg, hypertriglyceridaemia TEAE, Severe severity | – | patients with adverse event | 0%
CCCN(CCC)CCNC(=O)c1cc(Sc2ccc(Cl)cc2)nc2ccccc12 | SARS-CoV-2 | cytopathic effect | USA_WA1/2020 | first round 5-point | – | AC50 | 10 µM
CC(Cn1cncn1)NCc1cc(-c2ccccc2Cl)on1 (stereo not shown) | Lassa mammarenavirus | viral replication | Huh-7 | 10 µM, 72 h | – | remaining activity | 36%
O=C(NCCN1CCCCC1)c1ccc(-c2ccc(N3CCSCC3)nc2)cc1 | SARS-CoV-2 | cytopathic effect | USA_WA1/2020 | retest, 8-point, duplicates | – | efficacy | 81.1%
CCCCCCCCCCCCCCNC(=O)CP(=O)(O)O | Bacillus anthracis | – | Davis | – | – | MIC90 | 1.56 µg/mL (≈ 4.65 µM)
COc1cc2c3cc1Oc1cc(ccc1O)CC1c4c(cc(OC)c(O)c4Oc4ccc(cc4)CC3N(C)CC2)CCN1C (stereo not shown) | SARS-CoV-2 | viral replication, high-content imaging screen | – | cell-based | – | EC50 | 5.37 µM
CO/C1=C\C(C)=C\[C@@H](C)[C@@H](O)[C@@H](C)C/C(C)=C/C=C/[C@H](OC)[C@@H]([C@@H](C)[C@@H](O)[C@H](C)[C@@]2(O)C[C@@H](O)[C@H](C)[C@@H](C(C)C)O2)OC1=O | Ebola virus | viral replication | HeLa ATP6V0a2 knockdown | concentration not given | relative to: non-knockdown cells | EBOV-GFP infection potency change | no effect
CC[C@H](C)[C@H](NC(=O)[C@H](CC(C)C)NC(=O)[C@H](Cc1c[nH]c2ccccc12)NC(=O)[C@H](CCC(N)=O)NC(=O)[C@@H](NC(=O)[C@H](Cc1ccccc1)NC(=O)[C@H](C)NC(=O)[C@H](CCCCNC(=O)COCCOCCNC(=O)COCCOCCNC(=O)CC[C@H](NC(=O)CCCCCCCCCCCCCCCCCCC(=O)O)C(=O)O)NC(=O)[C@H](CCC(N)=O)NC(=O)[C@H](C)NC(=O)[C@@H](NC(=O)[C@H](CCCCN)NC(=O)[C@H](CC(=O)O)NC(=O)[C@H](CC(C)C)NC(=O)C(C)(C)NC(=O)[C@@H](NC(=O)[C@H](CO)NC(=O)[C@H](Cc1ccc(O)cc1)NC(=O)[C@H](CC(=O)O)NC(=O)[C@H](CO)NC(=O)[C@@H](NC(=O)[C@H](Cc1ccccc1)NC(=O)[C@@H](NC(=O)CNC(=O)[C@H](CCC(=O)O)NC(=O)C(C)(C)NC(=O)[C@@H](N)Cc1ccc(O)cc1)[C@@H](C)O)[C@@H](C)O)[C@@H](C)CC)[C@@H](C)CC)C(C)C)C(=O)N[C@@H](C)C(=O)NCC(=O)NCC(=O)N1CCC[C@H]1C(=O)N[C@@H](CO)C(=O)N[C@@H](CO)C(=O)NCC(=O)N[C@@H](C)C(=O)N1CCC[C@H]1C(=O)N1CCC[C@H]1C(=O)N1CCC[C@H]1C(=O)N[C@@H](CO)C(N)=O | – | measured: Pyrexia | healthy subjects | 5/5/8/10 mg titrated, multiple ascending dose | – | subjects with adverse events | 0%
CC(C)(C)N1CCC(c2ccccc2)(c2ccccc2)CC1 | SARS-CoV-2 | cytopathic effect | USA_WA1/2020 | round 1, 5-point | – | efficacy | 50.4%
O=C1NCCCOc2cccc(c2)C2c3ccc(cc3CCN2Cc2ncc[nH]2)Oc2ccc(O)c1c2 (stereo not shown) | Lassa mammarenavirus | viral replication | Huh-7 | 10 µM, 72 h | – | remaining activity | 52%
Nc1ncnc2c1ncn2[C@@H]1O[C@@H]2COP(=O)(O)O[C@H]3[C@@H](O)[C@H](n4cnc5c(=O)[nH]cnc54)O[C@@H]3COP(=O)(O)O[C@H]2[C@H]1O | Chikungunya virus | upregulated Reactome pathway, RNA sequencing, measured: DNA strand elongation (R-HSA-69190) | HFF-1 | – | relative to: CHIKV-infected untreated | fold enrichment | 4.14

SMILES | target or system | test | system | setting | scale | quantity | result
O=C(Nc1ncc(Cc2cccc3ccccc23)s1)C1CCCCC1 | Histoplasma capsulatum | microbial growth | – | – | – | MIC | 0.6 to 1.3 µM (≈ 0.21 to 0.456 µg/mL)
CC(=O)c1ccc2c(c1)N(CCCN1CCN(CCO)CC1)c1ccccc1S2 | SARS-CoV-2 | viral replication, high-content imaging screen | – | cell-based | – | EC50 | > 100 µM
C[C@H](NC(=O)Cc1cc(F)cc(F)c1)C(=O)N[C@H](C(=O)OC(C)(C)C)c1ccccc1 | rep main protease | reporter gene (mKate2), inhibitor | – | 20 µM | – | inhibition | 0.00886%
COc1ccc(C[C@@H]2c3cc(Oc4cc(C[C@@H]5c6cc(O)c(OC)cc6CCN5C)ccc4O)c(OC)cc3CCN2C)cc1 | Severe acute respiratory syndrome coronavirus 2 | cytopathic effect, inhibitor | Vero C1008 | 6.25 µM | – | inhibition | 0%
O=C(Nc1ccc(N2CCCN(C(=O)c3cnccn3)CC2)nc1)c1ccc(Br)cc1Cl | Mycobacterium tuberculosis | bacterial growth | H37Ra-lux | 168 h | – | IC90 | > 64 µM
O=C(Nc1cccc(Cl)c1)C1CCCN(Cc2cccc(-c3ccc(F)cc3F)c2)C1 (stereo not shown) | SARS-CoV-2 | cytopathic effect | USA_WA1/2020 | round 1, 5-point | – | maximum response | 42.1%
CC(C)CNC(=O)[C@@H](N)Cc1ccc(OP2(=O)CO[C@@H](Cn3cnc4c(N)ncnc43)CO2)cc1 (stereo partly shown) | cowpox virus | viral replication | – | – | – | IC50 | 7 µM
COc1ccccc1Nc1nc(-c2sc(NC(C)=O)nc2C)cs1 | rep main protease | viral replication, mKate2 reporter | SARS-CoV-2 | 20 µM | – | inhibition | -1.56%
CCC(CC)COC(=O)[C@H](C)N[P@](=O)(OC[C@H]1O[C@@](C#N)(c2ccc3c(N)ncnn23)[C@H](O)[C@@H]1O)Oc1ccccc1 | SARS-CoV-2 replicon | N-HiBiT luminescence | HeLa | 0.05 µM | relative to: DMSO | replicon activity | 133% and 160% and 127% and 89.1% and 138%
CC(C)=CCc1c(O)ccc(C(=O)/C=C/c2ccc(O)cc2)c1O | SARS-CoV-2 | viral replication | Vero E6 | 12.5 µM | relative to: mean of replicates | CPE inhibition | 0%
CC(C)(C)c1ccc(CN2CCN(C(c3ccccc3)c3ccc(Cl)cc3)CC2)cc1 (stereo not shown) | Marburg virus | pseudovirus entry | A549 | – | relative to: CC50 over IC50 | selectivity index | 4
Cc1nc2n(n1)CC(=O)N[C@@H](C(C)C)CN(C(=O)CCc1cccnc1)CC(=O)N[C@@H](CC(C)C)c1nc(cs1)C(=O)N[C@H]2Cc1ccccc1 | Lassa mammarenavirus | viral replication | Huh-7 | 10 µM, 72 h | – | remaining activity | 99%
CCN(CC)CCNC(=O)c1ccc(-c2nc(CN3CCc4ccccc43)c(C)o2)cc1 | SARS-CoV-2 | cytopathic effect, cell-based CPE | USA_WA1/2020 | round 2, 5-point dilution | – | AC50 | 12.6 µM
CN1CCN(C(c2ccccc2)c2ccccc2)CC1 | Ebola virus Zaire | HIV/EBOV pseudovirion entry | A549 | 48 h | – | IC50 | 5 ± 1.4 µM
CCc1c(C(=O)C(N)=O)c2c(OCC(=O)O)cccc2n1Cc1ccccc1 | Daboia russelii | – | C2C12 | 100 µM, added: Daboia russelii venom KA | relative to: venom alone | viability difference | -62%
COC(=O)C1=C(C)NC(C)=C(C(=O)OC2CCCN(Cc3ccccc3)C2)C1c1cccc([N+](=O)[O-])c1 (stereo not shown) | SARS-CoV-2 | viral replication, GFP plate reader screen | – | cell-based | – | EC50 | > 100 µM
CN(C)c1ccc(-c2nc(-c3cccs3)c(-c3cccs3)[nH]2)cc1 | SARS-CoV-2 | cytopathic effect | USA_WA1/2020 | retest, 8-point, duplicates | – | maximum response | 56.4%
O=C(Nc1ccc(N2CCCN(C(=O)c3cnccn3)CC2)nc1)c1ccccc1I | Mycobacterium tuberculosis | bacterial growth | H37Ra-lux | 168 h | – | IC90 | > 64 µM
CC[C@H]1CN2CC[C@H]1C[C@@H]2[C@@H](O)c1ccnc2ccc(OC)cc12 | SARS-CoV-2 | viral replication, GFP plate reader screen | – | cell-based | – | EC50 | 15.5 µM
Nc1ncnc2c([C@@H]3N[C@H](CO)[C@@H](O)[C@H]3O)c[nH]c12 | Marburg marburgvirus | virus production | HeLa, Musoke | 25 µM | – | inhibition | 100%
Nc1nc(Nc2ccc3c(c2)CC[C@@H](N2CCCC2)CC3)nn1-c1cc2c(nn1)-c1ccccc1CCC2 | SARS-CoV-2 | viral replication, high-content imaging screen | BetaCov/Belgium/GHB-03021/2020 | cell-based | – | EC50 | > 50.1 µM
Cc1ccnc(NCCNc2nc(C(C)(C)C)nc3c2cnn3C)c1 | Lassa mammarenavirus | viral replication | Huh-7 | 10 µM, 72 h | – | remaining activity | 1%
Nc1ccc2cc3ccc(N)cc3nc2c1 | SARS-CoV-2 | viral replication, GFP plate reader screen | – | cell-based | – | EC50 | 15 µM
COc1cc2c(O)c3c(c(-c4ccc5c(c4)OCO5)c2cc1OC)C(=O)N(/N=C/c1ccccc1)C3 | VSV pseudotyped with Ebola virus GP | viral entry, measured: GFP | HeLa | – | – | IC50 | 6.63 ± 0.437 µM

Repeated from above:
SMILES | target or system | test | system | setting | scale | quantity | result
Nc1ccc2cc3ccc(N)cc3nc2c1 | SARS-CoV-2 | viral replication, GFP plate reader screen | – | cell-based | – | EC50 | 15 µM
CC(C)(C)c1ccc(CN2CCN(C(c3ccccc3)c3ccc(Cl)cc3)CC2)cc1 (stereo not shown) | Marburg virus | pseudovirus entry | A549 | – | relative to: CC50 over IC50 | selectivity index | 4
CC(C)=CCc1c(O)ccc(C(=O)/C=C/c2ccc(O)cc2)c1O | SARS-CoV-2 | viral replication | Vero E6 | 12.5 µM | relative to: mean of replicates | CPE inhibition | 0%
O=C(Nc1ncc(Cc2cccc3ccccc23)s1)C1CCCCC1 | Histoplasma capsulatum | microbial growth | – | – | – | MIC | 0.6 to 1.3 µM (≈ 0.21 to 0.456 µg/mL)
O=C(Nc1cccc(Cl)c1)C1CCCN(Cc2cccc(-c3ccc(F)cc3F)c2)C1 (stereo not shown) | SARS-CoV-2 | cytopathic effect | USA_WA1/2020 | round 1, 5-point | – | maximum response | 42.1%
CC(C)(C)N1CCC(c2ccccc2)(c2ccccc2)CC1 | SARS-CoV-2 | cytopathic effect | USA_WA1/2020 | round 1, 5-point | – | efficacy | 50.4%
